Assay results collected from several papers.
Parts stem from different laboratories: compare values within a part only. Positions count from the first letter of the parent shown.
UniProt Q9HBY8, sequence (whole entry, looked up): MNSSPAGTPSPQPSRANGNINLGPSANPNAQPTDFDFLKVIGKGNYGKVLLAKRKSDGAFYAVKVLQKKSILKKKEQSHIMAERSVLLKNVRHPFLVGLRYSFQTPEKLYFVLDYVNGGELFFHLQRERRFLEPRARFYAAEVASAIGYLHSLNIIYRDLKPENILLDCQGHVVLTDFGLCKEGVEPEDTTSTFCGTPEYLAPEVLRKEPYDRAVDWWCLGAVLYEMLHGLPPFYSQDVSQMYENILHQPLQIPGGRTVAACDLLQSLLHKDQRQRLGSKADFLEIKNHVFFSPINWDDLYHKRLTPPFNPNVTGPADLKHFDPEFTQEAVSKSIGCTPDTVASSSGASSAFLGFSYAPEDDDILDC

Series 1
Target: RING finger protein unkempt homolog, zinc fingers 1-6, GST-SBP tag (UNK, Homo sapiens, UniProt Q9C0B0, residues 30-357)
Technique: RNA Bind-n-Seq
Form: RNA
Sample: in vitro
Concentration: not given
Notes: RNA with constant flanks, human and mouse sites, ends assumed
Reference: input RNA pool
Reading: higher = stronger binding
Measurement: bound/input enrichment
All sequences stand within: GGGAGUUCUACAGUCCGACGAUC … CAACAGAGGAUUGAGCAUCA
Residues (chain): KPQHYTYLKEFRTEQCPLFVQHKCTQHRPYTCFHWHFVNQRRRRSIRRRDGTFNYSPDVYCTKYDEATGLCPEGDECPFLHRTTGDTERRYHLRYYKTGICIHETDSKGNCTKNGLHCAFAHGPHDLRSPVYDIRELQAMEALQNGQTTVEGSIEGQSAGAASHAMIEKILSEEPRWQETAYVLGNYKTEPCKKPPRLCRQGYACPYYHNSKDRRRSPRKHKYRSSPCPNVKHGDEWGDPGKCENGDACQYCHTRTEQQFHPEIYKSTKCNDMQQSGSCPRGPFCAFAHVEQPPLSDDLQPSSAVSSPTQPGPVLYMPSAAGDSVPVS
Sequence = AGUGAUCCACCGUACAUGGAGAUGAAGGGAAAGGCGUCAGAGAAACUCUCUGAAAACAGUAAAAUAUUAAUCUCUAUGGCUAAGGAGAACAUUCCACCAAGCAGCCAACAACAGCCCAAG; result = 0.21 ratio
Sequence = GAAAGAGUUUUGUCAUUCAUUCCUCCAGAUGGAAAUUUCCGACUCAUAUCGUAUCGUGUCAGCUCACAAAAUCUAGUGGCAAUACCAGUGUAUGUGAAACACAGUAUCAGCUUUAAGGAA; result = 0.229 ratio
Sequence = CCUGCAUCUAAUAGUAGAUCUUCCCAGGACUUUGUGAUGCAUGUAAGUAUUUUUGAAUGUGAGUCAACAGGAGGUUCAUGUUGGGUCCUUGAGCAGACAAUUCAUUUAGAUGAGUUAAGC; result = 0.155 ratio
Sequence = GAAGUUGCAAGCAAUGUUCCAAAAGUUGUAGGUUCUGCUGUUGGUAGCGGGUCCAUUACUAGUAACAUCGUGGCUUCCAAUAGUUUGCCUCCAGCCACCAUUGCUCCUCCAAAACCAGCA; result = 0.356 ratio
Sequence = GGUAAGCGUCGCAACAAGACGCACACGCUGUGCCGCCGCUGUGGCUCCAAGGCCUACCACCUUCAGAAGUCGACUUGUGGCAAGUGUGGCUACCCUGCCAAGCGCAAGAGGAAGUAUAAC; result = 0.068 ratio
Sequence = ACUGAAAAUAAAGAUAUUUACUGGAGAAACGUGAGAGAAAAGUUGUCAGUAGGAGAGAGCAUUAGUUUGGAUGAGUUCAAGUCCUUUUGCCAUUUUACAACGCAUUUGGAAGACUUUGCU; result = 0.683 ratio
Sequence = AUAUCUACAUGCUGUCAGUGAGGCUCCAGGAGGCUUUCCUAACCCUGGGAAGUUAUUUGGGCAUAGCGCUCUAUGUUUAAUAAAGGUUUUUUAAUAGAUGUUUUAUUCAGUACAUCUUCC; result = 1.28 ratio
Sequence = GUUAAGAGCCCAGAGGUUCAAUUGCUUGGGCAUGUUGAAACUGAAGAUGUAGAAAUAAUUGCAACAUGUGAUACUUUUGGGAAUGAAGAUUUCAAUAAUAUUCAAGACUCUGAAAAUAAC; result = 0.241 ratio

Series 2
Target: PABPC1L2, full length, GST fusion (mouse, UniProt A0ABA7IW68)
Technique: RNAcompete
Form: RNA
Sample: in vitro
Concentration: 20 nM
Notes: 7-mer, probes averaged, single round
Reference: mean of 7-mers
Reading: higher = stronger binding
Measurement: 7-mer Z-score
Target sequence (chain): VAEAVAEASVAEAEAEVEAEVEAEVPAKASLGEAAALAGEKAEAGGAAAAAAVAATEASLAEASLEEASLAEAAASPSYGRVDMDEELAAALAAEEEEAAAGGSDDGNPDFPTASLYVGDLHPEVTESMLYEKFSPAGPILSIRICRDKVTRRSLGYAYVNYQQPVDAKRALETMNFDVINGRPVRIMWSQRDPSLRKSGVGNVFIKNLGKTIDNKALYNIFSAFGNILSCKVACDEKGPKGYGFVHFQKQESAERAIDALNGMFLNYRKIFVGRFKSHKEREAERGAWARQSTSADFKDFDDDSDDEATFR
Sequence = UAGGCCU; result = -0.271
Sequence = CUCCCAG; result = -0.233
Sequence = GGUUGCG; result = -0.103
Sequence = AGACCAU; result = -0.235
Sequence = GCAAAUG; result = 0.000733
Sequence = AUGCCGU; result = -0.347
Sequence = CGGCCCU; result = -0.302
Sequence = GAUCGAC; result = -0.13

Series 3
Target: CEP164, C-terminal peptide (human)
Technique: DHFR complementation, deep sequencing
Sample: yeast
Notes: single substitutions, model-inferred values
Reference: wild type
Reading: higher = weaker binding
Measurement: binding free energy change
Parent: PDZK1, PDZ domain 2 (human); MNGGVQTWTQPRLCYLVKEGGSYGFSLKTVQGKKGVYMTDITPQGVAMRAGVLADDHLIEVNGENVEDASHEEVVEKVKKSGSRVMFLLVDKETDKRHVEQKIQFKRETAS; partner HNRVKVYRF
Substitution = S22E; result = 0.114 kcal/mol
Substitution = N2L; result = -0.0808 kcal/mol
Substitution = L53V; result = 0.0193 kcal/mol
Substitution = V90I; result = -0.151 kcal/mol
Substitution = R97S; result = -0.127 kcal/mol
Substitution = K34A; result = 0.211 kcal/mol
Substitution = K33E; result = -0.131 kcal/mol
Substitution = A50I; result = 0.697 kcal/mol

Mixed results
Structure (SMILES) = CCC(=O)N[C@@H]1CC[C@H](C(=O)N(C)c2ccc(-c3nc4ccccc4o3)cc2)C1; target = Serine/threonine-protein kinase Sgk2 (SGK2, Homo sapiens, UniProt Q9HBY8); read-out = cell-free assay; technique = competition with immobilised ligand; concentration = 1 µM; measurement = remaining binding; result = 100%
